Measurements from different studies.
Each line is one published result; not all experiments were run side by side.
Matrix protein 2: Matrix protein 2 (Influenza A virus, UniProt P0DOF5)
Sequence of UniProt P0DOF5 (whole entry, looked up): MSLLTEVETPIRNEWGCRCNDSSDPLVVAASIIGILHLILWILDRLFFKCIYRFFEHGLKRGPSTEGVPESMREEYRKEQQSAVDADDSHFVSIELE
lasR: Transcriptional activator protein LasR (lasR, Pseudomonas aeruginosa, UniProt P25084)
Sequence of UniProt P25084 (whole entry, looked up): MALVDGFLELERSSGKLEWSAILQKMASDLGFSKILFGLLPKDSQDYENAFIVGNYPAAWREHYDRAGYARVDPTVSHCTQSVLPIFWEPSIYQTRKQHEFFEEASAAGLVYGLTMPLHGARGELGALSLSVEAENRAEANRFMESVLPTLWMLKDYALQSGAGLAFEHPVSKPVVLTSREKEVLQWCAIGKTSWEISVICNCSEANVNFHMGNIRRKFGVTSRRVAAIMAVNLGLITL
Sequence of UniProt P9WGM7 (whole entry, looked up): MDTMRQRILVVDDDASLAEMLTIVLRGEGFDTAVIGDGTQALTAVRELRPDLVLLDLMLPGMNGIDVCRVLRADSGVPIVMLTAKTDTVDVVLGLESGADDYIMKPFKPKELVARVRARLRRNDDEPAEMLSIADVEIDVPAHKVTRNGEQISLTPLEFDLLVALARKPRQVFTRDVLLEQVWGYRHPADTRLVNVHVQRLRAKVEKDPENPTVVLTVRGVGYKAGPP
Sequence of UniProt P9WIB9 (whole entry, looked up): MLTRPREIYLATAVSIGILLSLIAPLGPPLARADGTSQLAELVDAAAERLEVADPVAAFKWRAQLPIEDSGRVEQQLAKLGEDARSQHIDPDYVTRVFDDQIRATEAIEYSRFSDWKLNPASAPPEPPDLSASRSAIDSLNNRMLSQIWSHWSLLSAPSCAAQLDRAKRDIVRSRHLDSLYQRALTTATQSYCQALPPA
Sequence of UniProt P22310 (whole entry, looked up): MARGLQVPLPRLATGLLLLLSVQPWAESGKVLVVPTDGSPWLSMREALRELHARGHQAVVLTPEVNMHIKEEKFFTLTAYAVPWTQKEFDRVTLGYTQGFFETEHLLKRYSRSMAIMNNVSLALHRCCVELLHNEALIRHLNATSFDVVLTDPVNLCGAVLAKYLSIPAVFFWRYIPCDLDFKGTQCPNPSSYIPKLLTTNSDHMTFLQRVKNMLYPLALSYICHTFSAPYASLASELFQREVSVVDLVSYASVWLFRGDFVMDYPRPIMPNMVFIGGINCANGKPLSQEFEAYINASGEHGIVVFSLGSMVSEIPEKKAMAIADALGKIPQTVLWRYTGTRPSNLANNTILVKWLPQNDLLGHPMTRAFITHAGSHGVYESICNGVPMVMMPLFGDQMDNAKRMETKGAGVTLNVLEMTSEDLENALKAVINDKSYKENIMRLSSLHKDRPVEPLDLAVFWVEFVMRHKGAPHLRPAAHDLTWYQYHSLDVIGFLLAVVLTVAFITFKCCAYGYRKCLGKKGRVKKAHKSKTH
Sequence of UniProt P9WNS3 (whole entry, looked up): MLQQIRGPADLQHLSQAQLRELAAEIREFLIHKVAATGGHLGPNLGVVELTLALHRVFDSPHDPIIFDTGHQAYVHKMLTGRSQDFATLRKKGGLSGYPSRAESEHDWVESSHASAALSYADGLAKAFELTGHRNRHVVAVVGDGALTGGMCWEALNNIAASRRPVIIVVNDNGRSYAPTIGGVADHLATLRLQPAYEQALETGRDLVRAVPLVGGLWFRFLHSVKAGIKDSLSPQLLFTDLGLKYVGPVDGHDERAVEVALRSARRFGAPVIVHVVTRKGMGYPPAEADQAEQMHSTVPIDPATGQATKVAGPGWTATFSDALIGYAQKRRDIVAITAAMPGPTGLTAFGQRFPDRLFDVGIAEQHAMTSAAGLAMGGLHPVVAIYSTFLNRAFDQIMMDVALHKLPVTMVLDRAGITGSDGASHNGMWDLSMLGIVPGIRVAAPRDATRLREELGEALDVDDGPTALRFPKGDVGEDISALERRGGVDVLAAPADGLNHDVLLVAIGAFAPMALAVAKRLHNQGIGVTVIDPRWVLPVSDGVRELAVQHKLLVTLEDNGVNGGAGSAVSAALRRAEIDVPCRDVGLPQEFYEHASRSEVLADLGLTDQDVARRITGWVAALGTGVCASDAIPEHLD
Sequence of UniProt P68400 (whole entry, looked up): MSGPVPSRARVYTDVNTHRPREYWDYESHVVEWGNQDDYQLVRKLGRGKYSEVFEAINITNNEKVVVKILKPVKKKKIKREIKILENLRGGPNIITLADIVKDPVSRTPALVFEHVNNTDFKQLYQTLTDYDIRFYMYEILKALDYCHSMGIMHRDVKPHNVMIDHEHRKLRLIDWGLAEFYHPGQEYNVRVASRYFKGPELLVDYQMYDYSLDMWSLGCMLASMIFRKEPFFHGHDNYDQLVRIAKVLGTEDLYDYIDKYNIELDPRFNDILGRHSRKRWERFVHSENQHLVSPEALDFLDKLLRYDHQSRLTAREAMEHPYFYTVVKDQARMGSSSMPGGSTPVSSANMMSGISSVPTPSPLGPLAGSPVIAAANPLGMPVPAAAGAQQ
Sequence of UniProt P27487 (whole entry, looked up): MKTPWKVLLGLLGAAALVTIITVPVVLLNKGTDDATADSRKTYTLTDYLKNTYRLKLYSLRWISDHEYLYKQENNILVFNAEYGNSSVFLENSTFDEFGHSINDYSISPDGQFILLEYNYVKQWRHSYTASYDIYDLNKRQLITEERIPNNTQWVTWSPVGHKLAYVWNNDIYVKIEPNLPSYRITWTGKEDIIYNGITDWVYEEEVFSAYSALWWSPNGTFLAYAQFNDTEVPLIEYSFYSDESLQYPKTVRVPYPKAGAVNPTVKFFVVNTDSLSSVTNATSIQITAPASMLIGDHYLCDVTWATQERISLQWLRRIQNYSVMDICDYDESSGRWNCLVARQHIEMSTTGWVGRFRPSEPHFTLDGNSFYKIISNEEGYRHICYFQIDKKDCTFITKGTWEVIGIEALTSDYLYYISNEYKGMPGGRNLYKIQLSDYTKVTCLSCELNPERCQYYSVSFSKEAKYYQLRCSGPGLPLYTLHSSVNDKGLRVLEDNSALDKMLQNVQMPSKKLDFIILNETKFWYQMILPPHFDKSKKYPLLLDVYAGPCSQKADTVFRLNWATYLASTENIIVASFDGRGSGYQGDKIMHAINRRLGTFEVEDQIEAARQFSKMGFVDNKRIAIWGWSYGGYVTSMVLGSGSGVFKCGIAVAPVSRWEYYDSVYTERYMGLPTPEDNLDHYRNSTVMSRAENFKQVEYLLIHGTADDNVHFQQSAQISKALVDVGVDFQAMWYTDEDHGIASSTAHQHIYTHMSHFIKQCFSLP

CCCCCc1cc(O)c2c(c1)OC(C)(C)C1CCC(C)=CC21 (single isomer, unassigned; (-)) — inhibition (UDP-glucuronosyltransferase 1A4 (UGT1A4, Homo sapiens, UniProt P22310); trifluoperazine glucuronidation; recombinant microsomes; 10 or 100 µM, added: trifluoperazine): no inhibition
COc1ccc(CNC23CC4CC(CC(C4)C2)C3)s1 — inhibition (Matrix protein 2; ion current, two-electrode voltage clamp; 100 µM): 86%
CCn1c2ccccc2c2cc(C(=O)c3ccc(C)c4ccccc34)ccc21 — inhibition (tubulin colchicine site; [3H]colchicine binding, competition binding; purified tubulin; 5 µM): 53%
Ic1ccc(CNC23CC4CC(CC(C4)C2)C3)s1 — inhibition (Matrix protein 2; ion current, two-electrode voltage clamp; 30 µM): 72%
CS(=O)(=O)n1c(CN2C(=O)C(=O)c3ccccc32)cc2ccccc21 — inhibition (Secreted chorismate mutase (Rv1885c, Mycobacterium tuberculosis, UniProt P9WIB9); enzyme activity, inhibitor; 30 µM): 70.3%
CCC1(CC)C2CC3CC(C2)CC1(NC)C3 — inhibition (Matrix protein 2; enzyme activity, inhibitor; 100 µM, pH 5.5): 15%
c1cc(C2CC2)sc1CNC12CC3CC(CC(C3)C1)C2 — inhibition (Matrix protein 2; ion current, two-electrode voltage clamp; 100 µM): 7%
O=C1c2ccccc2-c2c1c1c(O)cccc1n2Cc1ccccc1 — inhibition (Casein kinase II subunit alpha, with CK2 beta subunit (CSNK2A1, Homo sapiens, UniProt P68400); 10 µM): 20%
CCCc1cn(-c2ccc(C(=O)N[C@H]3CCOC3=O)cc2)nn1 — inhibition (lasR; reporter gene, antagonist; 10 µM, added: OdDHL 10 nM): 12%
CCc1ccc(CNC23CC4CC(CC(C4)C2)C3)s1 — inhibition (Matrix protein 2; ion current, two-electrode voltage clamp; 100 µM): 48%
O=C(CSc1nc2ccccc2[nH]1)N/N=C/c1cc2c(s1)CCCC2 — inhibition (1-deoxy-D-xylulose-5-phosphate synthase (Mycobacterium tuberculosis, UniProt P9WNS3); enzyme activity, inhibitor; 120 µM): 44%
Nc1ncc(CNC23CC4CC(CC(C4)C2)C3)s1 — inhibition (Matrix protein 2; ion current, inhibitor, TEVC; Xenopus laevis oocytes; 100 µM, 2 min, wild type): inactive
O=S(=O)(O)CC1CSSCC(CS(=O)(=O)O)SS1 (centres unmarked) — inhibition (DNA-binding response regulator MtrA, C-terminal domain (mtrA, Mycobacterium tuberculosis, UniProt P9WGM7); DNA binding; 100 µM): > 50%
CCC1(CC)C2CC3CC(C2)CC1(N(C)C)C3 — inhibition (Matrix protein 2; enzyme activity, inhibitor; 100 µM, pH 5.5): 24%
O=S(=O)(O)CCOCC1CSSCC(COCCS(=O)(=O)O)SS1 (centres unmarked) — inhibition (Response regulator PhoP (Mycobacterium tuberculosis, UniProt P71814); DNA binding; 100 µM): > 50%
CCCCCc1cc(O)c2c(c1)OC(C)(C)[C@@H]1CCC(C)=C[C@@H]21 — inhibition (Dipeptidyl peptidase 4 (DPP4, Homo sapiens, UniProt P27487); enzyme activity, inhibitor, absorbance; 40 µg/mL): 21.6%
CCCCc1cn(-c2cccc(C(=O)N[C@H]3CCOC3=O)c2)nn1 — inhibition (lasR; reporter gene, antagonist; 100 µM, added: OdDHL 10 nM): 36%
